Assay results of several laboratories.
Lines come from different studies, so protocols differ. “And” joins repeats or separate records; there may be more than shown.
Target: Mitogen-activated protein kinase kinase kinase 1 (MAP3K1, Homo sapiens, UniProt Q13233)

| SMILES | test | system | setting | scale | quantity | result |
| --- | --- | --- | --- | --- | --- | --- |
| COc1cc(Nc2nccc(-c3cnn4nc(OC)ccc34)n2)cc(C(F)(F)F)c1 | binding, competition with immobilised ligand |  | 1 µM |  | remaining binding | 100% |
| C=CC(=O)Nc1cc(-c2nn(C3CCN(CCNC(=O)[C@H](C)CCC45CC6CC(CC(C6)C4)C5)CC3)c3ncnc(N)c23)ccc1Oc1ccccc1 | inhibitor, KiNativ profiling | biochemical | 2 µM |  | inhibition | 30.3% |
| Nc1ncc(-c2cc(-c3cnn(CC(F)(F)F)c3)ncc2F)nc1C(=O)NC1CNCC(F)C1 (centres unmarked) | enzyme activity |  | 1 µM | relative to: DMSO control | remaining activity | 75.3% |
| Cn1cc(-c2cnc3ccc(NC(=O)Nc4ccc5sccc5c4)cc3n2)cn1 | kinase binding, KiNativ profiling, refers to: Lys2 peptide | PANC-1 lysate | 2.5 µM |  | inhibition | 17.2% |
| NC(=O)[C@@H](O)C[C@H]1CCc2sc3ncnc(O[C@H]4CC[C@H](N5CCOCC5)CC4)c3c21 | enzyme activity, inhibitor |  | 10 µM |  | inhibition | 1% |
| Cc1ccc(-c2c(/C=C(\C#N)C(=O)NC(C)C)n(CCCO)c3ncnc(N)c23)cc1 | cell-free assay, competition with immobilised ligand |  | 1 µM |  | remaining binding | 2.7% |
| CCn1cc(C(=O)O)c(=O)c2c(N)c(F)c(NC3CCCCC3)cc21 | kinase activity |  | 0.1 µM, with: ATP at Km |  | inhibition | 23.8% |
| CC(C)=CC1OC(C)(C)C2C=C3C(=O)C(Cl)=CC(O)C3C3C(O)C4OC4C(=O)C132 (centres unmarked) | cell-free assay, competition with immobilised ligand |  | 10 µM |  | remaining binding | 93% |
| CNC1C[S+]2CC[S+]3CC[S+](C1)[Ru-4]321([N]=C=S)[n]2c3ccc(OC)cc3c3c4c(c5cc(F)c[n+]1c5c32)C(=O)NC4=O (centres unmarked) | KinomeScan |  | 0.1 µM | relative to: untreated | remaining binding | 99% |
| Nc1ncc2c(n1)-c1c([nH]c3ccc(C4=CCOCC4)cc13)CCC2 | binding, competition with immobilised ligand |  | 1 µM |  | remaining binding | 87% |
| N[C@H]1CC[C@H](Nc2nccc(-c3cccnc3Oc3ccc(NC(=O)NC4CC4)c4ccccc34)n2)CC1 | kinobead competition pulldown | HEK293/HCT116 lysate mixture | 10 µM, 1 h, 4 °C | lower = stronger competition | log2 LFQ intensity | 24.5 and 24.4 |
| COc1cc(Nc2nc(C)cc(-c3cnn4nc(OC)ccc34)n2)cc(C(F)(F)F)c1 | inhibitor |  | 1 µM | relative to: control | remaining activity | 86% |
| CCN1CCN(Cc2ccc(C(=O)Nc3ccc(C)c(NCc4cnc5[nH]ccc5c4OC)c3)cc2C(F)(F)F)CC1 | binding, competition with immobilised ligand |  | 1 µM |  | remaining binding | 27% |
| NC(=O)C[C@H]1CCc2sc3ncnc(O[C@H]4CC[C@H](N5CCOCC5)CC4)c3c21 | enzyme activity, inhibitor |  | 10 µM |  | inhibition | -3% |
| C=CC(=O)N1CCCC(n2c(=O)c3ncccc3n(Cc3ccc(Oc4ccccc4)cc3)c2=O)C1 (centres unmarked) | cell-free assay, competition with immobilised ligand |  | 1 µM |  | remaining binding | 72% |
| CS(=O)(=O)Nc1cccc(-c2csc3cnc(Nc4ccc(N5CCN(CCCCCOc6cccc7c6C(=O)N(C6CCC(=O)NC6=O)C7=O)CC5)cc4)nc23)c1 (centres unmarked) | probe labelling, inhibitor, KiNativ chemoproteomics | MOLT-4 | 1 µM |  | inhibition | 8.62% |
| CNC(=O)C1CCN(c2cc(C)c(F)cc2NC(=O)c2ccc(-c3cc(O)ccc3C)c(C)c2)CC1 | binding, competition with immobilised ligand |  | 1 µM |  | remaining binding | 100% |
| Cc1cnc2nc1Nc1cccc(c1)COC/C=C/COCc1cc(ccc1OCCN1CCOCC1)N2 | binding |  | 0.1 µM |  | remaining binding | 100% |
| C=CC(=O)N1CCc2ccc(-n3c(=O)ccc4cnc5ccc(-c6cnn(C)c6)cc5c43)cc21 | KINOMEscan |  | 1 µM | relative to: DMSO control | remaining binding | 96% |
| COc1c(Cl)cccc1Nc1c(-c2ccncc2C#C[C@@]2(C)CCCN2C(=O)/C=C/CN(C)C)[nH]c2c1C(=O)NCC2 | binding, competition with immobilised ligand |  | 3 µM |  | remaining binding | 89% |

For quick reference, copied from above:
| SMILES | test | system | setting | scale | quantity | result |
| --- | --- | --- | --- | --- | --- | --- |
| Cc1ccc(-c2c(/C=C(\C#N)C(=O)NC(C)C)n(CCCO)c3ncnc(N)c23)cc1 | cell-free assay, competition with immobilised ligand |  | 1 µM |  | remaining binding | 2.7% |
| CCn1cc(C(=O)O)c(=O)c2c(N)c(F)c(NC3CCCCC3)cc21 | kinase activity |  | 0.1 µM, with: ATP at Km |  | inhibition | 23.8% |
